Measurements collected from several papers.
Compare with care: the assays were run in different laboratories. Numbers after ± are the reported error.
U2AF2: U2AF2 148-342 (Homo sapiens, UniProt P26368)
UniProt P26368, sequence (whole entry, looked up): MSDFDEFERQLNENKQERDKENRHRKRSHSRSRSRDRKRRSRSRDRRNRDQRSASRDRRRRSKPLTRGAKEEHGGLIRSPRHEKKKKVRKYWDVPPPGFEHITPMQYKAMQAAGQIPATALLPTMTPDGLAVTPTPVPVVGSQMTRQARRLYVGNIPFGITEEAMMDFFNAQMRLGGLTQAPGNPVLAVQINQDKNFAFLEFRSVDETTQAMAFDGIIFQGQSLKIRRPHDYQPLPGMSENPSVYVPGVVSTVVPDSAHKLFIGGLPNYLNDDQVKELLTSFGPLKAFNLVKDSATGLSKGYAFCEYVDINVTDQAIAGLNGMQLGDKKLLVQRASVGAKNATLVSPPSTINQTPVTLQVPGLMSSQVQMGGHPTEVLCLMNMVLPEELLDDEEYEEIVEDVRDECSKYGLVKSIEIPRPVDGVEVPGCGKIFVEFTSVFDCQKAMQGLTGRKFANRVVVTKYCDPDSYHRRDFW
T1: TOA1/TOA2 1-286; 1-122 (Saccharomyces cerevisiae); chain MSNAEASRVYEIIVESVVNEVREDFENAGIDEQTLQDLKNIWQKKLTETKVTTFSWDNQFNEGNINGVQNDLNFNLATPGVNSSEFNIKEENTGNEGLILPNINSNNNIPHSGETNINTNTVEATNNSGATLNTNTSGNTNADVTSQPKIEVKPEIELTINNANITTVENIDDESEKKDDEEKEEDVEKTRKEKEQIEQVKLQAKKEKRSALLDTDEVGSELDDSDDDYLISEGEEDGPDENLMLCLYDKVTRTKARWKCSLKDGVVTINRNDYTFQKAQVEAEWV; chain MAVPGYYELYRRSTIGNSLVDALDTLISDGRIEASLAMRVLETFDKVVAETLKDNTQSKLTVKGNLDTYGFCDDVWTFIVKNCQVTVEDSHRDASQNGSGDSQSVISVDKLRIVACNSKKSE
B1: proteasome subunit alpha-3 (human); sequence looked up; chain SSIGTGYDLSASTFSPDGRVFQVEYAMKAVENSSTAIGIRCKDGVVFGVEKLVLSKLYEEGSNKRLFNVDRHVGMAVAGLLADARSLADIAREEASNFRSNFGYNIPLKHLADRVAMYVHAYTLYSAVRPFGCSFMLGSYSVNDGAQLYMIDPSGVSYGYWGCAIGKARQAAKTEIEKLQMKEMTCRDIVKEVAKIIYIVHDEVKDKAFELELSWVGELTNGRHEIVPKDIREEAEKYAKESLKEEDESDDDNM
B2: plakoglobin (human); sequence looked up; chain MEVMNLMEQPIKVTEWQQTYTYDSGIHSGANTCVPSVSSKGIMEEDEACGRQYTLKKTTTYTQGVPPSQGDLEYQMSTTARAKRVREAMCPGVSGEDSSLLLATQVEGQATNLQRLAEPSQLLKSAIVHLINYQDDAELATRALPELTKLLNDEDPVVVTKAAMIVNQLSKKEASRRALMGSPQLVAAVVRTMQNTSDLDTARCTTSILHNLSHHREGLLAIFKSGGIPALVRMLSSPVESVLFYAITTLHNLLLYQEGAKMAVRLADGLQKMVPLLNKNNPKFLAITTDCLQLLAYGNQESKLIILANGGPQALVQIMRNYSYEKLLWTTSRVLKVLSVCPSNKPAIVEAGGMQALGKHLTSNSPRLVQNCLWTLRNLSDVATKQEGLESVLKILVNQLSVDDVNVLTCATGTLSNLTCNNSKNKTLVTQNSGVEALIHAILRAGDKDDITEPAVCALRHLTSRHPEAEMAQNSVRLNYGIPAIVKLLNQPNQWPLVKATIGLIRNLALCPANHAPLQEAAVIPRLVQLLVKAHQDAQRHVAAGTQQPYTDGVRMEEIVEGCTGALHILARDPMNRMEIFRLNTIPLFVQLLYSSVENIQRVAAGVLCELAQDKEAADAIDAEGASAPLMELLHSRNEGTATYAAAVLFRISEDKNPDYRKRVSVELTNSLFKHDPAAWEAAQSMIPINEPYGDDMDATYRPMYSSDVPLDPLEMHMDMDGDYPIDTYSDGLRPPYPTADHMLA
UniProt Q00535, sequence (whole entry, looked up): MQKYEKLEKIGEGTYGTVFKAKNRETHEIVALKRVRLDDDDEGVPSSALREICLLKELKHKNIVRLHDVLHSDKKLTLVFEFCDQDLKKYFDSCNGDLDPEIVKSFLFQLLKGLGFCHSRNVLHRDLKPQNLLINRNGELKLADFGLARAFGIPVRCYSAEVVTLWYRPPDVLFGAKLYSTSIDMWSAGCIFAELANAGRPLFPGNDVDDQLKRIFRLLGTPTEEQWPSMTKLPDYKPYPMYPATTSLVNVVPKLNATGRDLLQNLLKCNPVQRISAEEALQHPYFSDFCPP

The Kd of `GAUUUCUCA (ssRNA)` is reported as 1250 nM (U2AF2; sequencing of bound RNA; RNA; motif only).
For `YLDPIPLAY`, the GFP-positive cells was 0.728% (Jurkat NFAT-eGFP expressing engineered TCR; NFAT reporter gene; peptide; concentration not given, HLA-A*01:01 presentation).
The activity change of `KEAFWDRCLSVINLMSSRMLQINA` is reported as 29% (Cyclin-dependent kinase 5, with p25 (CDK5, Homo sapiens, UniProt Q00535); phosphotransferase activity, radiometric; peptide; concentration not given, 10% DMSO, together with: histone substrate; reference: p5-WT peptide).
Under “log2 fold change”, `B1 (proteasome subunit alpha-3)` is recorded as 0.75 (CYB5R4 knockout human cells; PP6 interaction, 3xFLAG-PP6C IP-MS; concentration not given; reference: CYB5R4 KO over parental).
For `methyl-β-cyclodextrin`, “reduction of PS-positive cells” read 8.2% (HMC3; endocytosis, flow cytometry; 5 mM, 2 h pretreatment then 3 h, together with: FITC-PS 0.2 mg/mL).
`poly(rC)-binding protein 1, human` — result for “log2 fold change”: -1.96 (CYB5R4 knockout human cells; PP6 interaction, 3xFLAG-PP6C IP-MS; concentration not given; reference: CYB5R4 KO over parental).
The GFP-positive cells of `QSDPIGHEY` is reported as 0.904% (Jurkat expressing engineered TCR; NFAT-eGFP reporter, fluorescence microscopy; peptide; concentration not given, HLA-A*01:01 on EL4 cells).
`UCCAUAUUC (ssRNA)` has a Kd of 10600 nM (U2AF2; sequencing of bound RNA; RNA; motif only).
For `YIDILGLAY`, the GFP-positive cells was 0.479% (Jurkat expressing engineered TCR; NFAT-eGFP reporter, fluorescence microscopy; peptide; concentration not given, HLA-A*01:01 on EL4 cells).
`B2 (plakoglobin)` — result for “log2 fold change”: 0.61 (CYB5R4 knockout human cells; PP6 interaction, 3xFLAG-PP6C IP-MS; concentration not given; reference: CYB5R4 KO over parental).
`HVDPIGMMY` gave a GFP-positive cells of 0.416% (Jurkat expressing engineered TCR; NFAT-eGFP reporter, fluorescence microscopy; peptide; concentration not given, HLA-A*01:01 on EL4 cells).
The mRNA level of `epoetin alfa` is reported as 77.9 fold (UT7/EPO; RT-qPCR, item: SOCS3; concentration not given, 90 min, normalized to HPRT1; reference: vehicle).
With `lawsone` the selectivity index was 16.6 (MOLT-3; XTT; reference: MRC5 IC50 over MOLT-3 IC50).
`MTVCNASQRQAHAQATAVSL` has a selectivity ratio of 1.4 ± 0.6 (HCC2279; phage binding; peptide; reference: targeting over control phage).
For `TATTATTGGCACTTCTGTATAACTGGCTTTCATTCTCAAGTCAATCGGTCC (dsDNA; 5'-amino-C6 primer)`, the Kd was 54.7 ± 25.8 nM (T1, TOA1/TOA2 1-286; 1-122 (Saccharomyces cerevisiae); array; double-stranded DNA, one strand shown; TFIIA alone).
For `human apolipoprotein L2`, “log2 fold change” read -0.41 (CYB5R4 knockout human cells; PP4 interaction, 3xFLAG-PP4C IP-MS; concentration not given; reference: CYB5R4 KO over parental).
For `ELDYIGHYY`, the GFP-positive cells was 0.609% (Jurkat expressing engineered TCR; NFAT-eGFP reporter, fluorescence microscopy; peptide; concentration not given, HLA-A*01:01 on EL4 cells).
`human TUBB2A`: “log2 fold change” -0.58 (CYB5R4 knockout human cells; PP4 interaction, 3xFLAG-PP4C IP-MS; concentration not given; reference: CYB5R4 KO over parental).
With `Peginesatide` the phosphorylation level was 12.7 fold (UT7/EPO; tyrosine phosphorylation, LC-MS/MS phosphoproteomics, GluC, item: SHIP2 tyrosine 1135; 10 nM, 15 min, together with: 10 U/mL EPO; reference: vehicle).

Repeated from above:
The GFP-positive cells of `QSDPIGHEY` is reported as 0.904% (Jurkat expressing engineered TCR; NFAT-eGFP reporter, fluorescence microscopy; peptide; concentration not given, HLA-A*01:01 on EL4 cells).
`UCCAUAUUC (ssRNA)` has a Kd of 10600 nM (U2AF2; sequencing of bound RNA; RNA; motif only).
